Results gathered from unrelated publications.
Protocols differ between the studies behind these lines. ± gives the spread as reported.
sdiA: Regulatory protein SdiA (sdiA, Escherichia coli, UniProt P07026)
Sequence of UniProt P07026 (whole entry, looked up): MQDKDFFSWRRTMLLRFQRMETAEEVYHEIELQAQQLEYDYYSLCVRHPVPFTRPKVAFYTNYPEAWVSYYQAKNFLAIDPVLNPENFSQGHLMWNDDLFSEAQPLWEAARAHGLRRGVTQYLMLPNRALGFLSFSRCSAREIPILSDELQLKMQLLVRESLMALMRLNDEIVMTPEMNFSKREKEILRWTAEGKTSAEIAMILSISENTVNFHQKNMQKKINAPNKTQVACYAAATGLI
ADCYAP1R1: Pituitary adenylate cyclase-activating polypeptide type I receptor (ADCYAP1R1, Homo sapiens, UniProt P41586)
Sequence of UniProt P41586 (whole entry, unmodified, looked up): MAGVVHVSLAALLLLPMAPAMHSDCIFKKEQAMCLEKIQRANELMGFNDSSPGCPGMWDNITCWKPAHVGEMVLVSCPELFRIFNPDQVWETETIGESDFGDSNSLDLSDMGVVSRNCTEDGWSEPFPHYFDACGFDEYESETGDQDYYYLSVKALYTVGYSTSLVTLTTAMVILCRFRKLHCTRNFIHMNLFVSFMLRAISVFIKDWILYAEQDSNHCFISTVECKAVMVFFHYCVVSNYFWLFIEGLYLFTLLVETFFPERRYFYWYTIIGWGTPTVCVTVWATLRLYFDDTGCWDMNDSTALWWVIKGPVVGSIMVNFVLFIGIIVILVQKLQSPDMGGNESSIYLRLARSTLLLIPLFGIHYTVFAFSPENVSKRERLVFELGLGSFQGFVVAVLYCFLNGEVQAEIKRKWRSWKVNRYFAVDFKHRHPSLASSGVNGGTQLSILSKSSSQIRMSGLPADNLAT
Sequence of UniProt P50391 (whole entry, looked up): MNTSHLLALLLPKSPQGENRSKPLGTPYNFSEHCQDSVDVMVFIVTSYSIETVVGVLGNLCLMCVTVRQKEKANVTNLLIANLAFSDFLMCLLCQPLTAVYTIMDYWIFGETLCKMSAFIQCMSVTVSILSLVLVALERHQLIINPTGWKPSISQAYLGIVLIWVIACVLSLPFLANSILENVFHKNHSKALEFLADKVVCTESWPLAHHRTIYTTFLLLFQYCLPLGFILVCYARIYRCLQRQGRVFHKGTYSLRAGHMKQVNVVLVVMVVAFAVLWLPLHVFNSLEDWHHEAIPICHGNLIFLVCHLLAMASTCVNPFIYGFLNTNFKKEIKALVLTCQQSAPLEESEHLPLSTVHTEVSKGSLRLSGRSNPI
Sequence of UniProt P33535 (whole entry, looked up): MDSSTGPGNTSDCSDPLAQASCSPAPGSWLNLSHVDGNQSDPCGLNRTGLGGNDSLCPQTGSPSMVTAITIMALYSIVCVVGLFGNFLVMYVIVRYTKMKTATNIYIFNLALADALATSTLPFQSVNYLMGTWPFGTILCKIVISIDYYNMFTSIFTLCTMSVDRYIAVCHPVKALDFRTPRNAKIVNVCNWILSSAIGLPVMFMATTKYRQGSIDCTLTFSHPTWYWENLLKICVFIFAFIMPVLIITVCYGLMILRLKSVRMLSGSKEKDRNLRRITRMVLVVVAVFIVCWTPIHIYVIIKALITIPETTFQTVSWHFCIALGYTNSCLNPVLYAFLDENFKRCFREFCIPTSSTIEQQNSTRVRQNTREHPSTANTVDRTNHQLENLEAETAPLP
Sequence of UniProt P41143 (whole entry, unmodified, looked up): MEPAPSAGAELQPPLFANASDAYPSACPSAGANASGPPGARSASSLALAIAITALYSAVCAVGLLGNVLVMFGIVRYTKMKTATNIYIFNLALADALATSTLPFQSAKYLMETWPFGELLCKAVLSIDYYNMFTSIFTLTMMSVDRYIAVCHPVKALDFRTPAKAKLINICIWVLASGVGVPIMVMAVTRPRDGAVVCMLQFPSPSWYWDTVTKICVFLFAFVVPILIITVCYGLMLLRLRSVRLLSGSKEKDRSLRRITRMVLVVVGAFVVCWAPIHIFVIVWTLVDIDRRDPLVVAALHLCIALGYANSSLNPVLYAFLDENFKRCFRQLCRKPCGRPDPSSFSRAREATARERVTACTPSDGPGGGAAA
Sequence of UniProt Q8BZ39 (whole entry, looked up): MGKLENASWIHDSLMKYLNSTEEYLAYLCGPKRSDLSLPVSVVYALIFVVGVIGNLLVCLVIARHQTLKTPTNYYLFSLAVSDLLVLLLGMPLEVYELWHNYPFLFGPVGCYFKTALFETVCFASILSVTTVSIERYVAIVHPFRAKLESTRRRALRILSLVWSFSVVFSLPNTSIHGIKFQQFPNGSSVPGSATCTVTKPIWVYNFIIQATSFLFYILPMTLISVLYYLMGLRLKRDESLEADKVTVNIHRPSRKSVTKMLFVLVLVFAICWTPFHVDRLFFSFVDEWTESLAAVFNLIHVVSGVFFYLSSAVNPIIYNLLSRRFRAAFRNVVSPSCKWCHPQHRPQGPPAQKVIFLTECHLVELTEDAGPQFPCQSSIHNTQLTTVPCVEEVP
Sequence of UniProt O60674 (whole entry, looked up): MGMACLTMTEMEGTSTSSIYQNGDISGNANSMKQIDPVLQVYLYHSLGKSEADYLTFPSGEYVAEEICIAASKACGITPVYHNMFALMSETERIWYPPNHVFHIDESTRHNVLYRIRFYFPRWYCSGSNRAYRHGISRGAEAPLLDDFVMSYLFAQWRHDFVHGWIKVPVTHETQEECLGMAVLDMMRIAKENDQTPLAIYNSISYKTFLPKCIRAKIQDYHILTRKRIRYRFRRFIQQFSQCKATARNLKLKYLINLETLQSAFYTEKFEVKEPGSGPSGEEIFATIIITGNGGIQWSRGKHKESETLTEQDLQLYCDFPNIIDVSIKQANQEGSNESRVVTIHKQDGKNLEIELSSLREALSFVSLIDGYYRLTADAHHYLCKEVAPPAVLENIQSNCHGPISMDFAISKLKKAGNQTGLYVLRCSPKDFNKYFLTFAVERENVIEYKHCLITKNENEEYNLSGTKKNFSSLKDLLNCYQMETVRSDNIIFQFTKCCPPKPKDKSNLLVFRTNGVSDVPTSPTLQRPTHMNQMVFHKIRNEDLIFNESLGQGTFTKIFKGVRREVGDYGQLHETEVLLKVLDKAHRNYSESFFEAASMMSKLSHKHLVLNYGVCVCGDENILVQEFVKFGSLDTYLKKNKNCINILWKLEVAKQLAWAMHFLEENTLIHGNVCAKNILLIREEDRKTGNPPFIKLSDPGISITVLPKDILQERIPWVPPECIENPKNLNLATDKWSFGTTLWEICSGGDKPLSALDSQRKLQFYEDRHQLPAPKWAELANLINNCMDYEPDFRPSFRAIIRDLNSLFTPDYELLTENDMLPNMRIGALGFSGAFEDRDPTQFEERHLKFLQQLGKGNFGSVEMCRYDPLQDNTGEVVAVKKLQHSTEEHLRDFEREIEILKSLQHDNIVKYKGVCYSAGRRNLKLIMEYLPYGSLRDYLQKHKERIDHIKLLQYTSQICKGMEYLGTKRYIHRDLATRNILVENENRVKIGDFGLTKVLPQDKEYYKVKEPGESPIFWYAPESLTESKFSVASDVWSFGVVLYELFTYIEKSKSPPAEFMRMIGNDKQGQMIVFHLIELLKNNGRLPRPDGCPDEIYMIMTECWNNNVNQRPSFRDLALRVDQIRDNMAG
Sequence of UniProt P21554 (whole entry, unmodified, looked up): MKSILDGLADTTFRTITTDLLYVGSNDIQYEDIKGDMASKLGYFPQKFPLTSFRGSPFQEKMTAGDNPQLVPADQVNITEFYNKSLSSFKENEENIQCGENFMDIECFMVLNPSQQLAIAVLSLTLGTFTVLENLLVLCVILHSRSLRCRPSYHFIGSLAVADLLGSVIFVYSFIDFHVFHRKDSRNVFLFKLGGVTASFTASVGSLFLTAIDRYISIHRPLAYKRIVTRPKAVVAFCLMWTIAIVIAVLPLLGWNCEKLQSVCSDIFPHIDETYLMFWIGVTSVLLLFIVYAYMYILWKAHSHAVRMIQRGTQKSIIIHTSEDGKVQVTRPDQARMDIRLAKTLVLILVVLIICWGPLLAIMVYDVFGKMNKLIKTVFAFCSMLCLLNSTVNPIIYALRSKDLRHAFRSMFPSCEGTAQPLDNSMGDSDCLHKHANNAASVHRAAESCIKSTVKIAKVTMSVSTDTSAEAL
Sequence of UniProt Q585F3 (whole entry, looked up): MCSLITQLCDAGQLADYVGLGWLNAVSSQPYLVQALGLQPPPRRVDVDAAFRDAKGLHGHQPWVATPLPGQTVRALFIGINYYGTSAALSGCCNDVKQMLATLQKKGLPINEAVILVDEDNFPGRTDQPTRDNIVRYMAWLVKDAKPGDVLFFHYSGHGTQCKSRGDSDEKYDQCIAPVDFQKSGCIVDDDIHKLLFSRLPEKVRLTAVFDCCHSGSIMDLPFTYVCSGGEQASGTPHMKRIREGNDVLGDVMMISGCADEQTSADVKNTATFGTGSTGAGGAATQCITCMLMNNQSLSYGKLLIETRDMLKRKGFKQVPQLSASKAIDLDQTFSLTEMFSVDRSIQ

Structure (SMILES) = CCCCCC(=O)N[C@H]1CCSC1=O; tested on = sdiA; endpoint = EC50; value = 1.1 nM
Structure (SMILES) = CSCC[C@H](NC(=O)[C@H](CCC(N)=O)NC(=O)[C@H](CCCCN)NC(=O)[C@H](CCCNC(=N)N)NC(=O)[C@H](Cc1ccc(O)cc1)NC(=O)[C@H](CCCNC(=N)N)NC(=O)[C@H](CO)NC(=O)[C@H](Cc1ccc(O)cc1)NC(=O)[C@H](CO)NC(=O)[C@H](CC(=O)O)NC(=O)[C@@H](NC(=O)[C@@H](N)Cc1ccccc1)[C@@H](C)O)C(=O)N[C@@H](C)C(=O)N[C@H](C(=O)N[C@@H](CCCCN)C(=O)N[C@@H](CCCCn1cc(C[C@H](NC(=O)CNC(=O)[C@H](CO)NC(=O)[C@H](CCCNC(=N)N)NC(=O)[C@H](CO)NC(=O)[C@H](CC(C)C)NC(=O)[C@H](CC(C)C)NC(=O)CNC(=O)[C@H](C)NC(=O)[C@H](CC(C)C)NC(=O)[C@H](CCCNC(=N)N)NC(=O)[C@H](Cc2c[nH]cn2)NC(=O)[C@@H](NC(=O)[C@@H](N)C(C)C)[C@@H](C)O)C(=O)N[C@H](C(=O)N[C@H](C(=O)N[C@@H](CCCCN)C(=O)N[C@@H](CC(N)=O)C(=O)N[C@@H](CC(N)=O)C(=O)N[C@@H](Cc2ccccc2)C(=O)N[C@H](C(=O)N2CCC[C@H]2C(=O)N[C@H](C(=O)N[C@@H](CC(N)=O)C(=O)N[C@H](C(=O)NCC(=O)N[C@@H](CO)C(=O)N[C@@H](CCCCN)C(=O)N[C@@H](C)C(=O)N[C@@H](Cc2ccccc2)C(N)=O)C(C)C)[C@@H](C)O)C(C)C)C(C)C)C(C)C)nn1)C(=O)N[C@@H](Cc1ccc(O)cc1)C(=O)N[C@@H](CC(C)C)C(=O)N[C@@H](C)C(=O)N[C@@H](C)C(=O)N[C@H](C(=O)N[C@@H](CC(C)C)C(=O)NCC(=O)N[C@@H](CCCCN)C(=O)N[C@@H](CCCNC(=N)N)C(=O)N[C@@H](Cc1ccc(O)cc1)C(=O)N[C@@H](CCCCN)C(=O)N[C@@H](CCC(N)=O)C(=O)N[C@@H](CCCNC(=N)N)C(=O)N[C@H](C(=O)N[C@@H](CCCCN)C(=O)N[C@@H](CC(N)=O)C(=O)N[C@@H](CCCCN)C(N)=O)C(C)C)C(C)C)C(C)C; tested on = ADCYAP1R1 (Homo sapiens, UniProt P41586, del89-109); test = cAMP accumulation, antagonist; setting = with: VIP; endpoint = Kb; value = 14.1 nM
Structure (SMILES) = C[C@H](NC(=O)[C@H](CCCCN)NC(=O)c1ccccc1N)C(=O)N[C@@H](CCCNC(=N)N)C(=O)N[C@@H](CO)C(=O)N[C@@H](Cc1ccccc1)C(=O)N[C@@H](C)C(=O)N[C@@H](CCC(N)=O)C(=O)NCCNc1ccc([N+](=O)[O-])cc1[N+](=O)[O-]; tested on = Metacaspase-2 (MCA2, Trypanosoma brucei brucei, UniProt Q585F3); test = enzyme activity, competitive inhibitor; system = Trypanosoma brucei; setting = with: Z-FR-AMC substrate; endpoint = Ki; value = 9600 nM
Structure (SMILES) = CC[C@H](C)[C@H](NC(=O)[C@@H](NC=O)C(C)(C)C)C(=O)N[C@H](C(=O)N[C@H](C(=O)N[C@H](C(=O)NCC(=O)N1CCC[C@H]1C(=O)N[C@@H](Cc1c[nH]cn1)C(=O)N[C@@H](CCC(=O)O)C(=O)N[C@@H](CCC(=O)O)C(=O)N[C@@H](Cc1ccc(O)cc1)C(=O)N[C@@H](CCCCNC(=S)Nc1ccc2c(c1)C(=O)OC21c2ccc(O)cc2Oc2cc(O)ccc21)C(N)=O)[C@@H](C)O)[C@@H](C)CC)C(C)(C)C; tested on = Protein phosphatase 3 catalytic subunit alpha, with calcineurin B (PPP3CA, Homo sapiens, UniProt Q08209); test = binding, fluorescence polarisation; setting = GST-calcineurin, with: FITC-labelled peptide; endpoint = Kd; value = > 5800 nM
Structure (SMILES) = Cc1cc(O)cc(C)c1C[C@H](N)C(=O)N[C@H](CCCNC(=N)N)C(=O)N[C@@H](Cc1ccccc1)C(=O)N(C)CC(=O)N(C)Cc1cc(C(F)(F)F)cc(C(F)(F)F)c1; tested on = OPRD1 (Homo sapiens, UniProt P41143, K214A); test = agonist; endpoint = EC50; value = 0.35 ± 0.15 nM
Structure (SMILES) = Cc1ccc2c(C(C[N+](=O)[O-])c3cccs3)c(-c3ccccc3)[nH]c2c1 (stereo not drawn); tested on = CNR1 (Homo sapiens, UniProt P21554, I245L); test = β-arrestin recruitment, agonist, luciferase; endpoint = EC50; value = 320 nM
Structure (SMILES) = O=C(Cc1cccc(I)c1)N[C@H]1CCOC1=O; tested on = sdiA; endpoint = EC50; value = 1.86 nM
Structure (SMILES) = CC(C)(C)C(=O)OCOP(=O)(OCOC(=O)C(C)(C)C)C1CCCN(O)C1=O (stereo not drawn); tested on = DU-145; endpoint = CC50; value = > 100000 nM
Structure (SMILES) = CSCC[C@H](NC(=O)[C@H](CCC(N)=O)NC(=O)[C@H](CCCCN)NC(=O)[C@H](CCCNC(=N)N)NC(=O)[C@H](Cc1ccc(O)cc1)NC(=O)[C@H](CCCNC(=N)N)NC(=O)[C@H](CO)NC(=O)[C@H](Cc1ccc(O)cc1)NC(=O)[C@H](CO)NC(=O)[C@H](CC(=O)O)NC(=O)[C@@H](NC(=O)[C@@H](N)Cc1ccccc1)[C@@H](C)O)C(=O)N[C@@H](C)C(=O)N[C@H](C(=O)N[C@@H](CCCCN)C(=O)N[C@@H](CCCCN)C(=O)N[C@@H](Cc1ccc(O)cc1)C(=O)N[C@@H](CC(C)C)C(=O)N[C@@H](C)C(=O)N[C@@H](C)C(=O)N[C@H](C(=O)N[C@@H](CC(C)C)C(=O)NCC(=O)N[C@@H](CCCCN)C(=O)N[C@@H](CCCNC(=N)N)C(=O)N[C@@H](Cc1ccc(O)cc1)C(=O)N[C@@H](CCCCN)C(=O)N[C@@H](CCC(N)=O)C(=O)N[C@@H](CCCCn1cc(C[C@H](NC(=O)CNC(=O)[C@H](CO)NC(=O)[C@H](CCCNC(=N)N)NC(=O)[C@H](CO)NC(=O)[C@H](CC(C)C)NC(=O)[C@H](CC(C)C)NC(=O)CNC(=O)[C@H](C)NC(=O)[C@H](CC(C)C)NC(=O)[C@H](CCCNC(=N)N)NC(=O)[C@H](Cc2c[nH]cn2)NC(=O)[C@@H](NC(=O)[C@@H](N)C(C)C)[C@@H](C)O)C(=O)N[C@H](C(=O)N[C@H](C(=O)N[C@@H](CCCCN)C(=O)N[C@@H](CC(N)=O)C(=O)N[C@@H](CC(N)=O)C(=O)N[C@@H](Cc2ccccc2)C(=O)N[C@H](C(=O)N2CCC[C@H]2C(=O)N[C@H](C(=O)N[C@@H](CC(N)=O)C(=O)N[C@H](C(=O)NCC(=O)N[C@@H](CO)C(=O)N[C@@H](CCCCN)C(=O)N[C@@H](C)C(=O)N[C@@H](Cc2ccccc2)C(N)=O)C(C)C)[C@@H](C)O)C(C)C)C(C)C)C(C)C)nn1)C(=O)N[C@H](C(=O)N[C@@H](CCCCN)C(=O)N[C@@H](CC(N)=O)C(=O)N[C@@H](CCCCN)C(N)=O)C(C)C)C(C)C)C(C)C; tested on = ADCYAP1R1; test = cAMP, antagonist; endpoint = Kb; value = > 10000 nM
Structure (SMILES) = CC(=O)N[C@@H](CCCNC(=N)N)C(=O)N[C@@H](Cc1ccc(O)cc1)C(=O)N[C@H]1CCCNC(=N)NC(=O)NCCCCNC(=O)[C@H](Cc2ccc(O)cc2)NC(=O)[C@H](CCCNC(=N)N)NC(=O)[C@H](CC(C)C)NC1=O; tested on = NPY4R (Homo sapiens, UniProt P50391); test = calcium signal, antagonist; endpoint = Kb; value = 1100 nM
Structure (SMILES) = CCCCCCCCCCCCCCCCCC(=O)NC[C@H]1CC[C@H](C(=O)N[C@@H](CCC(=O)NCCCOCCOCCOCCCNC(=O)COCC(=O)N[C@@H](Cc2ccc(O)cc2)C(=O)NC(C)(Cc2ccccc2)C(=O)N[C@@H](CC(C)C)C(=O)N[C@@H](CCCC)C(=O)N[C@@H](CCCNC(=N)N)C(=O)N2CCC[C@H]2C(=O)N[C@@H](CCCNC(=N)NC)C(=O)N[C@@H](CC(N)=O)C(N)=O)C(=O)O)CC1 (stereo partly drawn); tested on = Neuromedin-U receptor 2 (Mus musculus, UniProt Q8BZ39); test = Gq signalling, agonist, IP-1 accumulation; setting = average of runs; endpoint = EC50; value = 0.93 nM
Structure (SMILES) = CSCC[C@H](NC(=O)[C@H](CCC(N)=O)NC(=O)[C@H](CCCCN)NC(=O)[C@H](CCCNC(=N)N)NC(=O)[C@H](Cc1ccc(O)cc1)NC(=O)[C@H](CCCNC(=N)N)NC(=O)[C@H](CO)NC(=O)[C@H](Cc1ccc(O)cc1)NC(=O)[C@H](CO)NC(=O)[C@H](CC(=O)O)NC(=O)[C@@H](NC(=O)[C@@H](N)Cc1ccccc1)[C@@H](C)O)C(=O)N[C@@H](C)C(=O)N[C@H](C(=O)N[C@@H](CCCCN)C(=O)N[C@@H](CCCCN)C(=O)N[C@@H](Cc1ccc(O)cc1)C(=O)N[C@@H](CC(C)C)C(=O)N[C@@H](C)C(=O)N[C@@H](C)C(=O)N[C@H](C(=O)N[C@@H](CC(C)C)C(=O)NCC(=O)N[C@@H](CCCCN)C(=O)N[C@@H](CCCNC(=N)N)C(=O)N[C@@H](Cc1ccc(O)cc1)C(=O)N[C@@H](CCCCN)C(=O)N[C@@H](CCC(N)=O)C(=O)N[C@@H](CCCNC(=N)N)C(=O)N[C@H](C(=O)N[C@@H](CCCCN)C(=O)N[C@@H](CC(N)=O)C(=O)N[C@@H](CCCCn1cc(C[C@H](NC(=O)CNC(=O)[C@H](CO)NC(=O)[C@H](CCCNC(=N)N)NC(=O)[C@H](CO)NC(=O)[C@H](CC(C)C)NC(=O)[C@H](CC(C)C)NC(=O)CNC(=O)[C@H](C)NC(=O)[C@H](CC(C)C)NC(=O)[C@H](CCCNC(=N)N)NC(=O)[C@H](Cc2c[nH]cn2)NC(=O)[C@@H](NC(=O)[C@@H](N)C(C)C)[C@@H](C)O)C(=O)N[C@H](C(=O)N[C@H](C(=O)N[C@@H](CCCCN)C(=O)N[C@@H](CC(N)=O)C(=O)N[C@@H](CC(N)=O)C(=O)N[C@@H](Cc2ccccc2)C(=O)N[C@H](C(=O)N2CCC[C@H]2C(=O)N[C@H](C(=O)N[C@@H](CC(N)=O)C(=O)N[C@H](C(=O)NCC(=O)N[C@@H](CO)C(=O)N[C@@H](CCCCN)C(=O)N[C@@H](C)C(=O)N[C@@H](Cc2ccccc2)C(N)=O)C(C)C)[C@@H](C)O)C(C)C)C(C)C)C(C)C)nn1)C(N)=O)C(C)C)C(C)C)C(C)C; tested on = ADCYAP1R1; test = cAMP accumulation, antagonist; setting = with: PACAP-27; endpoint = Kb; value = 166 nM
Structure (SMILES) = Cc1cc(O)cc(C)c1C[C@H](N)C(=O)N[C@H](CCCNC(=N)N)C(=O)N[C@@H](Cc1ccccc1)C(=O)N[C@@H](CCCCN)C(=O)NCCCCCCCCCCCCNC(=O)[C@H](Cc1ccccc1)NC(=O)[C@H](CC1CCCCC1)NC[C@@H]1Cc2ccccc2CN1C(=O)[C@@H](N)Cc1ccc(O)cc1; tested on = Oprm1 (Rattus norvegicus, UniProt P33535); test = ligand displacement, radioligand; setting = cell membranes; endpoint = Ki; value = 103 nM
Structure (SMILES) = O=C1NC2(CC2)COc2ncc(F)cc2[C@H]2COCCN2c2ccn3ncc1c3n2; system = Sprague-Dawley rat, male, thymus; setting = oral, 10 mg/kg/day, 4 weeks, end of treatment; endpoint = organ-to-body weight ratio; value = 0.162 ± 0.03%
Structure (SMILES) = C=CC(=O)Nc1ccc(F)c(-c2ncnc3[nH]cc(C(=O)OCC)c23)c1; tested on = JAK2 (Homo sapiens, UniProt O60674); test = inhibitor, kinase; setting = with: ATP 100 µM; endpoint = IC50; value = 8680 nM
